Published values from different studies.
Each numbered part is a random draw from the data of one study; scales do not carry over between parts.

Series 1
Target: Histone acetyltransferase KAT6A, both winged helices, GST fusion (KAT6A, Homo sapiens, UniProt Q92794, residues 1-181)
Method: protein binding microarray
Molecule type: double-stranded DNA, one strand shown
Matrix: in vitro
Concentration: not given
Setting: 8-mer, flanks averaged, mean of 2 arrays, mostly near background
Relative to: not given
Reading: higher = stronger binding
Quantity: E-score
Construct (chain): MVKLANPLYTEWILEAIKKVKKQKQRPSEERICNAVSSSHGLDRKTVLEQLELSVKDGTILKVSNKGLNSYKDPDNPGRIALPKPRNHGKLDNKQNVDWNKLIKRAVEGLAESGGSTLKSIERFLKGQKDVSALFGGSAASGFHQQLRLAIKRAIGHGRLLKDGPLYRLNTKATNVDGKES
AATGCACC: -0.173
CCTCTTTC: -0.273
CCCAGTAC: -0.186
ATTATACA: -0.085
AGCTATTA: -0.0988
GAAGAGCA: -0.0518
AAAACACG: 0.175
TAGATCGA: -0.0939
TATTCTCA: -0.224
ATCGCATA: 0.132

Series 2
Target: Interferon regulatory factor 5, full length, phosphomimetic (IRF5, Homo sapiens, UniProt Q13568-2, residues 1-514, K96S/S451D/S453D/S456D/S462D)
Method: protein-binding microarray
Molecule type: double-stranded DNA, one strand shown
Matrix: in vitro
Concentration: 250 nM
Setting: 60-bp whole probe
Together with: salmon DNA 0.4 mg/ml
Relative to: random background probes
Reading: higher = stronger binding
Quantity: log fluorescence
Constant ends, left off below: GCCTAGCAC … GTCTTGATTCGCTTGACGCTGCTG
ATTTTTTTCATTATTGTTTCGTGCTAG: 3.45 z-score
TTCACTTTCTTTAACATATTGTGCTAG: 3.77 z-score
TCACTTCTGGTGCTCATCTGGTGCTAG: 0.464 z-score
GACGGACTGGGGTATCTGGACGTGCTA: -0.189 z-score
GGCAGGAATAAAGGAGCAGCGTGCTAG: -0.223 z-score
TTACGACTGGGGTTTCGGTTAGTGCTA: 7.36 z-score

Series 3
Target: TAR DNA-binding protein 43, full length, His tag (TARDBP, Homo sapiens, UniProt Q13148, residues 1-414)
Method: RNA Bind-n-Seq
Molecule type: RNA
Matrix: in vitro
Concentration: 20 nM
Setting: 6-mer, flanks averaged, single round
Together with: 150 mM KCl
Relative to: input library
Reading: higher = stronger binding
Quantity: 6-mer enrichment (R)
UUUCGU: 0.593
AUCCCA: 0.591
ACCCGC: 0.672
UCAUCC: 0.552
UCAGGC: 0.828
AUCUCA: 0.533
UGGAGA: 1.47

Further values, each from its own experiment
PhoQ, residues 284 288 289 292 302 303 TVTVVA — fold induction (PhoP, residues 12 14 15 18 19 SYFRT (Escherichia coli, UniProt P23836); Sort-seq, refers to: YFP reporter; E. coli; PhoQ-PhoP variant library, together with: 10 µM Mg2+; relative to: high Mg2+ state, higher = stronger signaling): 10.7

Excerpt of the above (series 2):
ATTTTTTTCATTATTGTTTCGTGCTAG: 3.45 z-score
TTCACTTTCTTTAACATATTGTGCTAG: 3.77 z-score
TCACTTCTGGTGCTCATCTGGTGCTAG: 0.464 z-score
GACGGACTGGGGTATCTGGACGTGCTA: -0.189 z-score
